# Assay results gathered from unrelated publications.
# Lines come from different studies, so protocols differ. Values joined by “and” are separate records of one study, mostly repeats; a detail may differ. Numbers after ± are the reported error.
# Sequence of UniProt Q13418 (whole entry, looked up): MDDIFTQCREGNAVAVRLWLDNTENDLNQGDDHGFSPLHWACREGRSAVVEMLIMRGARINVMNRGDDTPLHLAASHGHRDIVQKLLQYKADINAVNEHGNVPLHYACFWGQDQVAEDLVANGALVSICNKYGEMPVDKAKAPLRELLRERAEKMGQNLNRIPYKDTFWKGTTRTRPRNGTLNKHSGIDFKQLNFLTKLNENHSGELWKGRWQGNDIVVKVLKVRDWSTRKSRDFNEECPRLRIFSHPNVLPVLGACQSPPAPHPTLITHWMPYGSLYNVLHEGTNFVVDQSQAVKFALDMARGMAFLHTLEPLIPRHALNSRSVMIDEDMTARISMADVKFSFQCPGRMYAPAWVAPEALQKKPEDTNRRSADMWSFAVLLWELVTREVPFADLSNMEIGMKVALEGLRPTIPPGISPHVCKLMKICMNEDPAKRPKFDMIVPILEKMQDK
SMILES,tested on,test,system,conditions,scale,endpoint,result
C/C=C1/CN2CC[C@]34C(=C(C(=O)OC)[C@H]1C[C@H]23)Nc1ccc(Br)cc14,,,CD-1 mouse,"subcutaneous, 10 mg/kg, 40 min",baseline: baseline,rotarod latency,~50%
CN(C)c1ccc(-c2nc(-c3cccs3)c(-c3cccs3)[nH]2)cc1,Vero-E6,CellTiter-Glo ATP,,"72 h, first round 5-point","baseline: DMSO 0%, hyamine -100%, more negative, more toxic",maximum response,-1.01%
C#Cc1ccc2c(c1)C(c1ccccn1)=NCc1c(-c3cnco3)ncn1-2.Cl,,shake flask,50 mM phosphate buffer,"24 h, pH 4, 25 °C",,solubility,3460 µg/mL
COc1ccc2c3c1O[C@H]1[C@@H](O)CC[C@H]4[C@@H](C2)N(C)CC[C@@]341,,pH-potentiometric titration,,,baseline: O-methyl derivative,"Δlog K, saturation effect",0.68 log units
CCN(CC)C(=O)[C@@H]1C=C2c3cccc4[nH]cc(c34)C[C@H]2N(C)C1,,refers to: numbness of hands and feet,healthy volunteers,"dose not given, 12 to 24 h","baseline: placebo, direction not given",List of Complaints score,0
Cc1ncc2n1-c1ccc(Cl)cc1C(c1ccccc1F)=NC2,,,"wild-type mice, plasma","intravenous, 0.3 mg/kg, with: 3-day PCN 10 mg/kg",,mean residence time,0.585 ± 0.182 h
OCc1ncc2n1-c1ccc(Cl)cc1C(c1ccccc1F)=NC2,,,"human, plasma","oral, 7.5 mg of midazolam, day 1, geometric mean, no amenamevir",,AUC(0-t),44 ng·h/mL
O=C(C1CCCCC1)N1CCN(S(=O)(=O)c2cccc3cnccc23)CC1,,,human,"5 µM, with: ketoconazole 3 µM",,CYP3A contribution to clearance,0%
Cc1ncc2n1-c1ccc(Cl)cc1C(c1ccccc1F)=NC2,,,"healthy volunteers, plasma","oral, 5 mg single dose, day 1, given alone",,Tmax,2 h
CCCC(C(=O)c1ccc(O)c(OC)c1)N1CCCC1 (stereo not shown),,LC-MS/MS,"rat, trunk blood plasma","subcutaneous, 1 mg/kg MDPV, 240 min",,plasma concentration,41.1 ± 2.9 ng/mL
O=C(O)CCCO,,,"Sprague-Dawley rat, male","intravenous, 600 mg/kg daily, day 5, chronic",,renal clearance,1.64 mL/min/kg
Cc1ncc2n1-c1ccc(Cl)cc1C(c1ccccc1F)=NC2,,,healthy humans,"oral, dose not given",,gastrointestinal adverse events,0%
CN1[C@H]2CC[C@@H]1[C@@H](C(=O)O)[C@@H](OC(=O)c1ccccc1)C2,,LC-MS/MS,"Sprague-Dawley rat, whole blood","intraperitoneal, 20 mg/kg of cocaine",,AUC(0-inf),9750 ± 540 ng·h/mL
COc1cccc(C2(O)CCCCC2CN(C)C)c1 (stereo not shown),,joint PK model,"human, whole blood","oral, one-compartment metabolite model",,absorption rate constant,4.56 ng/h
O=C1c2c(O)c(=O)ccn2N([C@@H]2c3ccccc3SCc3c2ccc(F)c3F)[C@@H]2COCCN12,,,BALB/c mouse,"subcutaneous, 4 mg/kg q24h",,trough concentration,4.38 ng/mL
COc1ccc2c3c1O[C@H]1[C@@H](O)CC[C@@]4(O)[C@@H](C2)N(C)CC[C@]314,,pH-potentiometric titration,,,baseline: O-methyl derivative,"Δlog K, saturation effect",0.4 log units
Cc1ncc(OC[C@@]2(c3cccc(F)c3)C[C@H]2C(=O)Nc2ccc(F)cn2)c(C)n1,,population PK base model,"human, plasma","oral, capsule",,zero-order absorption duration,0.598 h
CCCC(C(=O)c1ccc(O)c(O)c1)N1CCCC1 (stereo not shown),,LC-MS/MS,"rat, trunk blood plasma","subcutaneous, 2 mg/kg MDPV, 40 min",,plasma concentration,50.6 ± 7 ng/mL
C#Cc1ccc2c(c1)C(c1ccccn1)=NCc1c(-c3cnco3)ncn1-2,,,Sprague Dawley rat,"oral, 2 mg/kg, cassette dosing",baseline: brain AUC over plasma AUC,Kp,1.08 and ~1
CC(=O)Oc1ccc2c3c1O[C@H]1[C@@H](OC(C)=O)C=C[C@H]4[C@@H](C2)N(C)CC[C@@]341,,LC-MS/MS,"Sprague-Dawley rat, male, whole blood","intraperitoneal, 10 mg/kg",,AUC(0-inf),4 ± 0.667 ng·h/mL
Cc1ccc2nc(C3CCCN(Cc4cccc(-c5cccnc5)c4)C3)[nH]c(=O)c2c1 (stereo not shown),Vero-E6,CellTiter-Glo ATP,,"72 h, retest 8-point duplicates","baseline: DMSO 0%, hyamine -100%, more negative, more toxic",maximum response,-8.21%
C[C@H]1CN(c2n[nH]c3nc(N[C@H]4CC[C@H](NS(=O)(=O)CCC(F)(F)F)CC4)ncc23)CCO1,"ILK (Homo sapiens, UniProt Q13418)","inhibitor, Kinobeads competition profiling",,0.8 µM,baseline: vehicle,relative abundance,1.15
CCOC(=O)Nc1ccc(NCc2ccc(F)cc2)cc1N,,rotarod test,"mouse, CCI neuropathic pain model",10 mg/kg,,time to first slip,0.83 ± 0.08 min
CN/C(=N\[N+](=O)[O-])NCc1cnc(Cl)s1,,,soil,"28 days, nominal 3.3",,recovery,63.6%
CCCC(C(=O)c1ccc2c(c1)OCO2)N1CCCC1.Cl (racemic),,,male Sprague-Dawley rat,"subcutaneous, 4 mg/kg, 40 min",,core body temperature,no effect
CN1COCN(Cc2cnc(Cl)s2)/C1=N\[N+](=O)[O-],,,soil,"56 days, nominal 10",,recovery,72%
COc1cc2c(Oc3ccc4[nH]c(C)cc4c3F)ccnc2cc1OCC1(N)CC1,,,paediatric refractory sarcoma patients,10 mg,,Myalgia incidence,25%
CCC(CC)COC(=O)[C@H](C)N[P@](=O)(OC[C@H]1O[C@@](C#N)(c2ccc3c(N)ncnn23)[C@H](O)[C@@H]1O)Oc1ccccc1,,,human,"intravenous, dose not given",,participants with drug-related adverse events,5.1%
